Experimental data collected from several papers.
Each numbered part is a random draw from the data of one study; scales do not carry over between parts. Changes are numbered by the printed parent chain. pIC50: −log10 of the molar value.

Block 1 — technique: RNA Bind-n-Seq; molecule type: RNA; medium: in vitro; concentration: not given; baseline: input RNA pool; reading: higher = stronger binding; quantity: bound/input enrichment
Target: RING finger protein unkempt homolog, zinc fingers 1-6, GST-SBP tag (UNK, Homo sapiens, UniProt Q9C0B0, residues 30-357)
Sequence of UniProt Q9C0B0 (30-357, looked up): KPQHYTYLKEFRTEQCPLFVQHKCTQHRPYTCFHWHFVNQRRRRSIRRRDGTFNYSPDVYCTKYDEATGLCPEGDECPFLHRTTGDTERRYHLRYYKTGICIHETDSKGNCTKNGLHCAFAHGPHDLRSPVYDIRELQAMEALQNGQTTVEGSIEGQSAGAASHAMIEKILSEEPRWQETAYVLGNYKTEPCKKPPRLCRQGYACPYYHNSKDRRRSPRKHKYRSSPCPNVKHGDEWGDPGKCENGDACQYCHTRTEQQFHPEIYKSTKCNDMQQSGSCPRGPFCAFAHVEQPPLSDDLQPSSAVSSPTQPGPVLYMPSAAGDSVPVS
Setting: RNA with constant flanks, human and mouse sites, ends assumed
All sequences stand within: GGGAGUUCUACAGUCCGACGAUC … CAACAGAGGAUUGAGCAUCA
Sequence = AAAGAAUUACAGACGACCCUUGUCCGUGGGUAUCAGGUUCACGUGCUCACUUUCACUGUUUACACGUUGCUGCAAGGCCUCUCCAGCAAGCUGCAAGUUGGGGAUUUAGAUUCUUGUCUU; value = 0.23 ratio
Sequence = GCACCCAAACCCGACAGUUCUAUGUCUCCAUUCAGCCACCUGUCGGGGAGCUGAUGGCCCCUGUAUUUAUGAGUGAGAAUGAGUUCAAGAAGGAACAGGGAAAGCUGACAGGCAUGAAUG; value = 0.171 ratio
Sequence = AUGGGCUUUGAUGCUGUUAUCCAUAAUCCUGACCCUCUCCCUGUUUUAACUGACACCUUGUUUCUGACUGUUACGGCGUCACUGACUUUGCCAUGGGACCAUAUCCAAAGCACAUUGCUG; value = 0.173 ratio
Sequence = CGCAGAAGAUUAAAGGGUGAAAAUGGGAUGGAGGAUUGUGUCAUGGCCCUAGAAACCUUGUUUAGUGUUCUGCUUUCUCUUUGCAGACUUAUGGCUCCCUACACACCUUUUCUCACUGAA; value = 0.166 ratio
Sequence = UGCCCUUCCAGUAAUAGUUAAUUUUGAAUAAUUAUGUAUUGUCUGAAAAGCAAUGAGUGCUAGUUUUUGUUUUCUUUGUUUAAAAAAAAAAACAAAAAUCCCCACAAACGUUUGUUGUUU; value = 2.81 ratio
Sequence = CCUCUGAGGAAGAAUGCAGGUGCCUCCAGCAGUCUGGUGCUGCACUCCAGCCCUCUUAAUGUCCUCAUGGGAUCUUCAGGGAAAGAAGAGAAUGAAAGCCAUGAGCCGUCAGCUGAGUCU; value = 0.128 ratio
Sequence = CUUUACUGGCAAGAGACUUCCUUUGAUUUCUACUGUUUACAAAUAAAACUCAGCCAGUCUCAUUCUAUAUCCCAAACGUACUGAAUGAAACUGAUUUUGGUUCCACAAGCAGUGUUUGGG; value = 0.111 ratio
Sequence = UACAGAAAUGCUCUGUUCUACCGCAGCAACAUGGCUGACAUGCUGUAUAAUCUAGGGUUGCUGCUCCAAGAGAACAGCAGGUUUGCAGAAGCUCUUCACUAUUACAAACUGGCCAUUGGG; value = 0.129 ratio

Block 2 — target: tungstate, free oxyanion; technique: microfluidic competitive inhibition; medium: in vitro, cell-free expressed; concentration: not given; reading: lower = stronger binding; quantity: oxyanion analog dissociation constant
Setting: derived from inhibition constants, unchanged parent 2230 nM
Starting sequence: PafA, mature enzyme, eGFP fusion (Elizabethkingia meningoseptica, UniProt Q9KJX5); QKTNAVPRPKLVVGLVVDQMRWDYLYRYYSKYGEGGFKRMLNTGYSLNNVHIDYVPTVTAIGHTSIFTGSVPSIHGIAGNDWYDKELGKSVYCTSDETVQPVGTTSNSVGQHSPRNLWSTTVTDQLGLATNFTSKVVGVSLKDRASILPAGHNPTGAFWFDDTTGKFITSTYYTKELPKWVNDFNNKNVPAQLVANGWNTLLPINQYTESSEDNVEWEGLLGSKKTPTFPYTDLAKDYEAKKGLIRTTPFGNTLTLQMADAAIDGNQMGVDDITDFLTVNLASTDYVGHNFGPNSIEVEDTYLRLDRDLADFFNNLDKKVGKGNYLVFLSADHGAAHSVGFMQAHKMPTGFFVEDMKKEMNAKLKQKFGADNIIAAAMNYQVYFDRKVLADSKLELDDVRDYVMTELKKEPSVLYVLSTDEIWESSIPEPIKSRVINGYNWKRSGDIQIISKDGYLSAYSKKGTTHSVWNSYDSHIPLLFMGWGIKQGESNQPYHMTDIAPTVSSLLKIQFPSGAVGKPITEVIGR
Substitution = M347V; value = 2.27 µM
Substitution = T200V; value = 2.21 µM
Substitution = L220V; value = 2.64 µM

Block 3 — target: CCND2, cyclin fold, Cln2 fusion (human); technique: yeast growth competition, sequencing; medium: yeast; setting: weak parent motif; baseline: not given; reading: higher = stronger binding; quantity: normalised enrichment score
Starting sequence: viral docking peptide; TSVRRALFTGGSD; partner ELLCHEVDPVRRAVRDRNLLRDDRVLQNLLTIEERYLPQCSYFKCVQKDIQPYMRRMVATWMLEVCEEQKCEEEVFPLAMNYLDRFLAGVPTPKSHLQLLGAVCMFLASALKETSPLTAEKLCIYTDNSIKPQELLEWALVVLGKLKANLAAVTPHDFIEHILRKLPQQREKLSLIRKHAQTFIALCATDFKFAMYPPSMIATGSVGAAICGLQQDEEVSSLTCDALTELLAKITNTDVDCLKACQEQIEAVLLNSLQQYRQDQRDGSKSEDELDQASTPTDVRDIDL
Substitution = TSVRRAMFTGGSD [L7M]; value = 0.312
Substitution = TSVKRALFTGGSD [R4K]; value = -0.031
Substitution = TSVRRALGTGGSD [F8G]; value = 0.0802
Substitution = TSVRRALITGGSD [F8I]; value = -0.131
Substitution = TSVRRALFTGQSD [G11Q]; value = 0.0558
Substitution = TKVRRALFTGGSD [S2K]; value = -0.0469
Substitution = TSVGRALFTGGSD [R4G]; value = -0.607
Substitution = TSKRRALFTGGSD [V3K]; value = -0.33
Substitution = TSVRSALFTGGSD [R5S]; value = 0.322
Substitution = TSVRRAYFTGGSD [L7Y]; value = 0.697
Substitution = TSVRRALFTVGSD [G10V]; value = -0.303
Substitution = TSSRRALFTGGSD [V3S]; value = -0.113
Substitution = TSVRRAHFTGGSD [L7H]; value = 0.259
Substitution = TSVRRALFTNGSD [G10N]; value = 0.442
Substitution = TSVRRALPTGGSD [F8P]; value = 0.0708
Substitution = TSVRRANFTGGSD [L7N]; value = 0.326
Substitution = TSVRRALFTGGPD [S12P]; value = 0.106
Substitution = TSVRRALFCGGSD [T9C]; value = 0.17
Substitution = TSVRRALFTGGED [S12E]; value = -0.0393
Substitution = TSVRRALFFGGSD [T9F]; value = 0.368
Substitution = THVRRALFTGGSD [S2H]; value = 0.0653
Substitution = TSMRRALFTGGSD [V3M]; value = -0.211
Substitution = TSVRRALKTGGSD [F8K]; value = -0.194
Substitution = TSVRPALFTGGSD [R5P]; value = -0.0729
Substitution = TSVRRALFTGESD [G11E]; value = 0.00327

Block 4 — technique: RNAcompete; molecule type: RNA; medium: in vitro; concentration: 20 nM; setting: 7-mer, probes averaged, single round; baseline: mean of 7-mers; reading: higher = stronger binding; quantity: 7-mer Z-score
Target: PABPC1L2, full length, GST fusion (mouse, UniProt A0ABA7IW68)
Construct (chain): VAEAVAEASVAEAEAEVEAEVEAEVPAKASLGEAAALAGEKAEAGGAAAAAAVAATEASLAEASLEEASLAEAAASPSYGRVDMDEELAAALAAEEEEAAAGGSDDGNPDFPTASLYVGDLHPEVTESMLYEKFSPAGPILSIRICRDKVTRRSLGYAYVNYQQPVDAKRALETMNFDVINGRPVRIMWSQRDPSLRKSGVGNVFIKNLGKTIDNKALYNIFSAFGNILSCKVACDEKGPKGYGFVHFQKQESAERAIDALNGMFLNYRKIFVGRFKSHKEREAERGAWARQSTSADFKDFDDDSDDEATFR
Sequence = AGUUGGA; value = 0.0913
Sequence = GCCUGUC; value = -0.376
Sequence = GGACCUU; value = -0.0138
Sequence = CUUAGAU; value = -0.226
Sequence = UAGCAUG; value = -0.0681
Sequence = CUGCUAU; value = -0.365
Sequence = GAGCUCU; value = -0.338
Sequence = UAGUAUA; value = -0.0573

Block 5 — technique: RNA Bind-n-Seq; molecule type: RNA; medium: in vitro; concentration: 365 nM; baseline: no-protein control; reading: higher = stronger binding; quantity: RBNS enrichment (R)
Target: RNA binding protein fox-1 homolog 2, RRM domain, GST-SBP tag (RBFOX2, Homo sapiens, UniProt O43251-10, residues 100-194)
Setting: natural RNA segment, single round, ends assumed
All sequences stand within: GGGAGUUCUACAGUCCGACGAUC … UGGAAUUCUCGGGUGCCAA
Target sequence (chain): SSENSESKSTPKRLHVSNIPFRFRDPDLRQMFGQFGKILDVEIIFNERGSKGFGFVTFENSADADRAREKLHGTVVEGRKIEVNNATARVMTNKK
Sequence = GUGCCUCACAAGUGCCUUUUGAAAAGCCUUAAAUUCUGCAUUCCCAUAAAAUAAAGUUGAUGCCACCAGACAAAGCAUUUCUGGGUCUGUAUCUGCCUGGCUGGGGUUCA; value = 0.321
Sequence = GCAUUAUUCACUAGAUGCAAAGGGAGCCAGCAAGAUGGCUCAGUGAGUCUGGGUGCUUGUCACCUAGCCUGACAUUCUGAGUUCAAUCCCUGGGACCCGCCUGAUAGGAG; value = 0.304
Sequence = UCAAUUUUGACUUAAUGUGAUUACUGCUCUAUUCCAAAAAGGUUGCUGUUUCACAAUACCUCAUGCUUCACUUAGCCAUGGUGGACCCAGCGGGCAGGUUCUGCCUGCUU; value = 0.243
Sequence = UCUGUAUAUUUGAACUGCUCCUUAUGUGACAAAAUAGGUAGCUCUUGGGCUCAUGUCCUGGGUUUUGGCUCUUUAAUGAUUACUCCAGGCCAGCAUUUAGUCGUUUGAGA; value = 0.536
Sequence = AAAGUGACUUCAAUAAAUUUAUAUUAAAAUAAACUUAAGAAAUUUACAAACAAGACCUUUUUAAAAUUUAAUUUAAUUUUUUAACUUAUUCACUUUAUAUCCCACUCACU; value = 0.56
Sequence = CGGCGGACCUGCAGAUGACCUGGAGUUCCUGAUUCAGGUCCCUGUCUGCAGCCCGGGCUGCCUGGGCCACAGCCUGCCAGUGUGGGCAGUGUGACGAAAGGCGGCCUGUA; value = 0.291
Sequence = UUUACUGGGGAAAGUGCAUCUGGCCAAAUGAUAGGAUAGUCAAGCCUAUUGCAACAAAAUUAGGAAGUUUGUUGUAUAAAUAAGCAUGUAAAAGUGCACUUAAAAUGAAU; value = 3.61
Sequence = CUCCUCACUUGCUGCAGUGUCAUAGCAAUAAAAUGUGAUUCUUGGGGUCCCCCCAGGGAGCUGCCCAUGGCUUUAUUUAUGAACCUGGUUUUCGGGAGUCAGGGGAGGAG; value = 0.418

Further values, each from its own experiment
SMILES = COC(=O)c1cc(N(C)C(=O)c2ccn3ncc(-c4ccc(C(=O)O)cc4)c3c2)ccc1Cl; target = Progesterone receptor (PGR, Homo sapiens, UniProt P06401); observed = cell-free assay; quantity = pIC50; value = < 4.52

Repeated from above (block 1):
Sequence = CCUCUGAGGAAGAAUGCAGGUGCCUCCAGCAGUCUGGUGCUGCACUCCAGCCCUCUUAAUGUCCUCAUGGGAUCUUCAGGGAAAGAAGAGAAUGAAAGCCAUGAGCCGUCAGCUGAGUCU; value = 0.128 ratio
Sequence = CUUUACUGGCAAGAGACUUCCUUUGAUUUCUACUGUUUACAAAUAAAACUCAGCCAGUCUCAUUCUAUAUCCCAAACGUACUGAAUGAAACUGAUUUUGGUUCCACAAGCAGUGUUUGGG; value = 0.111 ratio
Sequence = UACAGAAAUGCUCUGUUCUACCGCAGCAACAUGGCUGACAUGCUGUAUAAUCUAGGGUUGCUGCUCCAAGAGAACAGCAGGUUUGCAGAAGCUCUUCACUAUUACAAACUGGCCAUUGGG; value = 0.129 ratio
